Published values of several laboratories.
Each numbered part is a random draw from the data of one study; scales do not carry over between parts.

Block 1
Target: RNA binding protein fox-1 homolog 2, RRM domain, GST-SBP tag (RBFOX2, Homo sapiens, UniProt O43251-10, residues 100-194)
Technique: RNA Bind-n-Seq
Form: RNA
Medium: in vitro
Tested at: 365 nM
Setting: natural RNA segment, single round, ends assumed
Relative to: no-protein control
Reading: higher = stronger binding
Shared flanks, not repeated: GGGAGUUCUACAGUCCGACGAUC … UGGAAUUCUCGGGUGCCAA
Construct (chain): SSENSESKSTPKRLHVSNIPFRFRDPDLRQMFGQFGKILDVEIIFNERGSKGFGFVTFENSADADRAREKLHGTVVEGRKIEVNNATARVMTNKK
Strand | RBNS enrichment (R)
ACUUGUUCCUCCAAAGCAGAACCCGGGAGGUUGCUAUCUGCCAGAAGCCUAGGCCAGCCAGAUACCACCAUUUGCUGCUUCAGGCUUGCCUGCCUGUUGUGAUAACCAGC | 0.284
UCACACAUCUUGAGCGAGAAGGCAUCUUCCUGGAAGACACAGCCUGCUUCUACCUGGCAGAGAUCACACUAGCCCUGGGCCAUCUCCAUUCCCACGGCAUCAUCUACCGG | 0.259
AACACUAUUCUAACACAGGAGAUAAUGUACUUGGUACUGUUUAUUCAACUGGGGGAAAAUAAAACUUUGAGCAUUUCCCUUGGAACUUGAGAUCAGAUCAUAACUCACUU | 0.241
GAACCUGAGAGCCAGAGACUUCUUGGGCCUUCCUGCCUGCCACCCCCUAGGGGCCAGGACAGGACCAGUUUACCUCUUUCCAGAUAUGGUGGUUGGAGGGCUGGUUCAGG | 0.282
AAUAGCCAGAUAUGAGUUUAAACUUUUUUCAUGCUUGUAUAUUUUAUUUUUAACUAUAUACAAGUAUGAAAUCUAACAAUUUUCUAACAAAUUGUCUUAUAUAUGAAGCC | 0.696
UUUUCCCCCACCCUCCCAUGAGACUGCCCUGCCCAGGUAUCCUGGGGGAAGAGGAGAUGUGAUCAGGCCCCACCCCUGUAAUCAGGCAAGGAGGAGGAGUCAGAUGAGGC | 0.477

Block 2
Target: Centromere-binding protein 1, full length, N-terminal tag (CBF1, Saccharomyces cerevisiae, UniProt P17106, residues 1-351)
UniProt P17106, sequence (whole entry, looked up): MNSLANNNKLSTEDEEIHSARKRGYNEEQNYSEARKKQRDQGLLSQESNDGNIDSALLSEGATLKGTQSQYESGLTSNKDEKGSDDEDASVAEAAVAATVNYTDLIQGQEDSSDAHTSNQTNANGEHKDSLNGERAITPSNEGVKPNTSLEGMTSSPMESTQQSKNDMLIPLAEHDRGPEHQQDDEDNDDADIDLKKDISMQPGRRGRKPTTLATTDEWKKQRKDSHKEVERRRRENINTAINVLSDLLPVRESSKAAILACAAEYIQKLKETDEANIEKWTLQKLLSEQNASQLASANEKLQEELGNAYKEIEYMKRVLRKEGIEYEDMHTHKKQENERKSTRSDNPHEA
Technique: protein-binding microarray
Form: double-stranded DNA, one strand shown
Medium: in vitro
Tested at: 0.8 µM
Setting: whole 60-bp probe, no competitor
Reading: higher = stronger binding
Shared flanks, not repeated: … GTCTTGATTCGCTTGACGCTGCTG
Strand | fluorescence intensity [a.u.]
GAAACCGGTTTGCAACACATGAATGGCGCACATTAG | 502
GAAAGCCACTACTATCACGTGCCATTACCATTTTAG | 9730
TGTACGAAGCTATTCCTCGTGCTTATAGTAGTTAGG | 624
CTATCCAGGTATTTACACGTTTAACTGGTTTGTTTC | 521
GAATTCACAATATTCCGCGTGAATCGTAGAATTTAG | 525
CTACATGAATTTCGTTCCGTGATTTTAATAGTATTC | 680

Block 3
Target: RING finger protein unkempt homolog, zinc fingers 1-6, GST-SBP tag (UNK, Homo sapiens, UniProt Q9C0B0, residues 30-357)
UniProt Q9C0B0, sequence (30-357, looked up): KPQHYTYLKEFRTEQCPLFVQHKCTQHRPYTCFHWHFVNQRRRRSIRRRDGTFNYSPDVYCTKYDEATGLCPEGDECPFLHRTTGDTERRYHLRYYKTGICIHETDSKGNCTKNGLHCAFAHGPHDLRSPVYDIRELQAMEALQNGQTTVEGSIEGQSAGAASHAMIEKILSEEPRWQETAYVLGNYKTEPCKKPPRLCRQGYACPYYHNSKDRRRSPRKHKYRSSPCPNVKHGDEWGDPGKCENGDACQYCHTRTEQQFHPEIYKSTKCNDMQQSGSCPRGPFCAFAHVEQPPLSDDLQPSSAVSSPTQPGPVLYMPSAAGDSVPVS
Technique: RNA Bind-n-Seq
Form: RNA
Medium: in vitro
Tested at: not given
Setting: RNA with constant flanks, human-mouse chimeric sites, ends assumed
Relative to: input RNA pool
Reading: higher = stronger binding
Shared flanks, not repeated: GGGAGUUCUACAGUCCGACGAUC … CAACAGAGGAUUGAGCAUCA
Strand | bound/input enrichment [ratio]
CCUGCUCAGAUCACCAUGAAAGUAAUCCAAGGCUUGUAUAGUGGGGUCACCACAGUGGAACUAGAUACCCUGGCUGCUGAGACAGCCGCGACCUUGACCACGAAGCACCCUGACUAUGCC | 0.174
CUGGCCUUCUGAGCAUCAGGGGCCUCCUUUCGUAUAGUCACUGCUUCUGCAUCAGAUAUUUUUAGCUGCAACUCCCUACUGGGUGGGGCACCCAUUUCAGGCAGAAGGUUUUGGUACCCU | 0.438
GGACAUCUGUCAAAUUGUUAUGUUCCUAAAAACGUAGUGAACACUCUGAUACACUUCAUCUGCUUGUACAUCUGUAUUUGUAUAAUAUGUAAAUAUGUUAAUCCAAGCAAUGUGUCACUU | 0.148
CUCAGAGACGUGGCAUAUCAGUAUGUGAAAAAGGGGGCUCGUAUAUUUUUGGAAGGGAAAGUGGACUAUGGCGAGUACAUGGAUAAAAACAAUGUGAGGCGGCAAGCAACAACAAUCAUA | 0.367
GUGACUGGUGUUAAGAUUUCCCCUCAGCAAAGAAGUGCAGUAGUCACAAUAAUCCCUUCUGUGGUGAGUGCCAGUCAGAUAAAAGAGCUGGUCCCAGACCUCAGUUUAGACAUGGGAACU | 0.322

Further values, each from its own experiment
Molecule | target | test | system | conditions | how to read | measurement | value
PhoQ, residues 284 288 289 292 302 303 GNNTDL | PhoP, residues 12 14 15 18 19 HEGLL (Escherichia coli, UniProt P23836) | Sort-seq, item: YFP reporter | E. coli | PhoQ-PhoP variant library, added: 10 µM Mg2+ | relative to: high Mg2+ state, higher = stronger signaling | fold induction | 3.07
